Measurements from different studies.
Protocols differ between the studies behind these lines. Several values in a cell are separate wells, animals, samples, runs or records. ± gives the spread as reported.
GLP1R: Glucagon-like peptide 1 receptor (GLP1R, Homo sapiens, UniProt P43220)

O=C1Nc2c(ccc(Cl)c2Cl)C1=NO  current change (KCNN4/CALM1 (Homo sapiens, UniProt O15554+P0DP23, V282G); ion current, whole-cell patch clamp; HEK293 expressing V282G mutant; 10 µM, together with: 250 nM intracellular calcium): no effect
O=C(N/N=C/c1cc(Br)ccc1O)c1cc2ccccc2cc1O  activity (NR3C1 (Homo sapiens, UniProt P04150); SRC1-4 coactivator displacement, inhibitor, TR-FRET; up to 100 µM, together with: dexamethasone): inactive
Nc1ncnc2c1ncn2[C@@H]1O[C@H](COP(=O)(O)OP(=O)(O)OP(=O)(O)O)[C@@H](O)[C@H]1O  kcat (CKMT1A (Homo sapiens, UniProt P12532, E265Q); substrate, ADP-Glo luminescence; pH 8.5, forward reaction, E227Q mutant, together with: second substrate in excess): 0.0003 ± 0.0001 s⁻¹
CC[C@H](C)[C@H](NC(=O)[C@H](Cc1ccccc1)NC(=O)[C@H](CCC(=O)O)NC(=O)[C@H](CCCNC(=N)N)NC(=O)[C@H](C)NC(=O)[C@H](C)NC(=O)[C@H](CCC(N)=O)NC(=O)[C@H](CCCCNc1c(NCCCCCN(O)C(=O)CCC(=O)NCCCCCN(O)C(=O)CCC(=O)NCCCCCN(O)C(C)=O)c(=O)c1=O)NC(=O)[C@H](CCC(=O)O)NC(=O)[C@H](CC(C)C)NC(=O)[C@H](Cc1ccc(O)cc1)NC(=O)[C@H](CO)NC(=O)[C@H](CO)NC(=O)[C@H](CCCCNc1c(NCCCCCN(O)C(=O)CCC(=O)NCCCCCN(O)C(=O)CCC(=O)NCCCCCN(O)C(C)=O)c(=O)c1=O)NC(=O)[C@H](CC(=O)O)NC(=O)[C@H](CO)NC(=O)[C@@H](NC(=O)[C@H](Cc1ccccc1)NC(=O)[C@@H](NC(=O)CNC(=O)[C@H](CCC(=O)O)NC(=O)[C@H](C)NC(=O)CCc1cnc[nH]1)[C@@H](C)O)[C@@H](C)O)C(=O)N[C@@H](C)C(=O)N[C@@H](Cc1c[nH]c2ccccc12)C(=O)N[C@@H](CC(C)C)C(=O)N[C@H](C(=O)N[C@@H](CCCNC(=N)N)C(=O)NCC(=O)N[C@@H](CCCNC(=N)N)C(=O)N[C@@H](CCCCNC(=O)COCCOCCNC(=O)COCCOCCNC(=O)CC[C@H](NC(=O)CCCCCCCCCCCCCCCCC(=O)O)C(=O)O)C(=O)O)C(C)C  fold potency loss (GLP1R; agonist, CRE luciferase reporter; BHK cells; metal-free DFO conjugate, together with: 1% HSA; baseline: parent peptide): 14.3
NC(N)=NN=C(C=Cc1ccc([N+](=O)[O-])o1)C=Cc1ccc([N+](=O)[O-])o1  luminescence signal reduction (NanoBiT HiBiT/LgBiT luciferase; inhibitor, HiBiT luminescence counterscreen; conditioned medium only; 1.66 µM, 24 h; baseline: vehicle): -5.07%
C=CC(=O)N1CCC[C@@H](n2nc(-c3ccc(Oc4ccccc4)cc3)c3c(N)ncnc32)C1  remaining activity (MYLK (Homo sapiens, UniProt Q15746); 0.1 µM): 88.9%
Nc1nc2c(ncn2[C@@H]2O[C@H](COP(=O)(O)O)[C@@H](O)[C@H]2O)c(=O)[nH]1  reaction velocity (GUK1 (Homo sapiens, UniProt Q16774); enzyme activity, NADH-coupled; 125 µM, together with: KCl 50 mM): 0.118 µM/s and 0.131 µM/s and 0.133 µM/s
c1coc(-c2n[nH]cc2-c2ccnc3ccccc23)c1  log2 fold change (Serine/threonine-protein kinase SSN3 (SSN3, Candida albicans, UniProt Q5AHK2); kinase binding, MIB/MS competition; Candida albicans lysate; 10 µM; baseline: DMSO, negative = stronger binding): -0.24
CCCCC[C@@H]1OC(=O)[C@@H](C)N(C)C(=O)[C@H](CCCCC)OC(=O)[C@@H](C)N(C)C(=O)[C@H](CC(=O)O)OC(=O)[C@@H](C)N(C)C(=O)[C@H](CCCCC)OC(=O)[C@@H](C)N(C)C1=O  Ca2+ spark frequency (Ryr2 (Mus musculus, UniProt E9Q401); permeabilized ventricular cardiomyocytes, C57BL/6J mice; 25 µM, 15 min; baseline: vehicle): increased
CC[C@H](C)[C@H](NC(=O)[C@H](Cc1ccccc1)NC(=O)[C@H](CCC(=O)O)NC(=O)[C@H](CCCNC(=N)N)NC(=O)[C@H](C)NC(=O)[C@H](C)NC(=O)[C@H](CCC(N)=O)NC(=O)[C@H](CCC(=O)O)NC(=O)[C@H](CCC(=O)O)NC(=O)[C@H](CC(C)C)NC(=O)[C@H](Cc1ccc(O)cc1)NC(=O)[C@H](CO)NC(=O)[C@H](CO)NC(=O)[C@H](CCCCNc1c(NCCCCCN(O)C(=O)CCC(=O)NCCCCCN(O)C(=O)CCC(=O)NCCCCCN(O)C(C)=O)c(=O)c1=O)NC(=O)[C@H](CC(=O)O)NC(=O)[C@H](CO)NC(=O)[C@@H](NC(=O)[C@H](Cc1ccccc1)NC(=O)[C@@H](NC(=O)CNC(=O)[C@H](CCC(=O)O)NC(=O)[C@H](C)NC(=O)CCc1cnc[nH]1)[C@@H](C)O)[C@@H](C)O)C(=O)N[C@@H](C)C(=O)N[C@@H](Cc1c[nH]c2ccccc12)C(=O)N[C@@H](CC(C)C)C(=O)N[C@H](C(=O)N[C@@H](CCCNC(=N)N)C(=O)NCC(=O)N[C@@H](CCCNC(=N)N)C(=O)N[C@@H](CCCCNC(=O)COCCOCCNC(=O)COCCOCCNC(=O)CC[C@H](NC(=O)CCCCCCCCCCCCCCCCC(=O)O)C(=O)O)C(=O)NCC(=O)NCC(=O)N[C@@H](CO)C(=O)N[C@@H](CCCCNc1c(NCCCCCN(O)C(=O)CCC(=O)NCCCCCN(O)C(=O)CCC(=O)NCCCCCN(O)C(C)=O)c(=O)c1=O)C(=O)O)C(C)C  fold potency loss (GLP1R; agonist, CRE luciferase reporter; BHK cells; metal-free DFO conjugate, together with: 0% HSA; baseline: parent peptide): 10.5

A few entries again:
O=C1Nc2c(ccc(Cl)c2Cl)C1=NO  current change (KCNN4/CALM1 (Homo sapiens, UniProt O15554+P0DP23, V282G); ion current, whole-cell patch clamp; HEK293 expressing V282G mutant; 10 µM, together with: 250 nM intracellular calcium): no effect
